Values quoted from earlier work as cited in several papers.
± marks the error that the study gave. Converted amounts (≈) assume the structure as drawn.
Chain of UniProt P04789 (whole entry, looked up): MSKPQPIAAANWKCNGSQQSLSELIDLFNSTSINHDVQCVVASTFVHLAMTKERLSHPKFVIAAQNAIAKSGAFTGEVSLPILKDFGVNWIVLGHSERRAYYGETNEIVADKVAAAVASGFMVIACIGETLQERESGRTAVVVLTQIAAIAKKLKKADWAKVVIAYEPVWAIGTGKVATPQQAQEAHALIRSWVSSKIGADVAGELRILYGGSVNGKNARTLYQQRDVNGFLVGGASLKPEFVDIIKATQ
Chain of UniProt P0DMS8 (whole entry, looked up): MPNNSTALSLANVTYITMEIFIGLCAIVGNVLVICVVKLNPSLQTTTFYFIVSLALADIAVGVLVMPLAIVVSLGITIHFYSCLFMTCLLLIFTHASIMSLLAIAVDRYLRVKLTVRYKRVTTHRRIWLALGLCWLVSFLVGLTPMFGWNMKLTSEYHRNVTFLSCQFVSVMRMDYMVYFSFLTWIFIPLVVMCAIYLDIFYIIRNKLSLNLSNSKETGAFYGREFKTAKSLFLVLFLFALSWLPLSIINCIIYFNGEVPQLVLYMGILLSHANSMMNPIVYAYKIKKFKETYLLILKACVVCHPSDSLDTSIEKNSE
Chain of UniProt P15207 (whole entry, looked up): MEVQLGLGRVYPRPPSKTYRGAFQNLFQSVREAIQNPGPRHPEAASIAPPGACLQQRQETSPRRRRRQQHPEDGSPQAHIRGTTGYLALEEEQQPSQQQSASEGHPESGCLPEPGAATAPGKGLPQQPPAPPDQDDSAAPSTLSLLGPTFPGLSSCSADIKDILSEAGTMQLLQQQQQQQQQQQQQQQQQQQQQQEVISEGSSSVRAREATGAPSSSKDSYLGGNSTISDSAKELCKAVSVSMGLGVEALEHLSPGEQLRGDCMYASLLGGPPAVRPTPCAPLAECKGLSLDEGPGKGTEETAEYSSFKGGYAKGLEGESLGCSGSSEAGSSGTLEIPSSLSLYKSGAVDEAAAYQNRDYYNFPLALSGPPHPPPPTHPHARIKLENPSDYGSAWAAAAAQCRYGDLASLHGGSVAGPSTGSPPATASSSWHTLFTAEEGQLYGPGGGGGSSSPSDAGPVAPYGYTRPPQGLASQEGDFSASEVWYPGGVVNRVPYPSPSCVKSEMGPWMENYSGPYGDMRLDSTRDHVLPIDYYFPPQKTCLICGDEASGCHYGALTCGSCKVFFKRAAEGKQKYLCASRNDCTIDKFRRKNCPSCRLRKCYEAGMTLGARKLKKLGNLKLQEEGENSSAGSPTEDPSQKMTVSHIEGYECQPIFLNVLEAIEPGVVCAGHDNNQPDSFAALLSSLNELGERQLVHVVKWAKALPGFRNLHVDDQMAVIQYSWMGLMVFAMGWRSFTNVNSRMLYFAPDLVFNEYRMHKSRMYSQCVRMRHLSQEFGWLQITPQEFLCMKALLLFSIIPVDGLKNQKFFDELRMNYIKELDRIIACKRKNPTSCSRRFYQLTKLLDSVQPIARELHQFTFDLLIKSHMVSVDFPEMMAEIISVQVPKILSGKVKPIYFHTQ
Chain of UniProt P42336 (whole entry, unmodified, looked up): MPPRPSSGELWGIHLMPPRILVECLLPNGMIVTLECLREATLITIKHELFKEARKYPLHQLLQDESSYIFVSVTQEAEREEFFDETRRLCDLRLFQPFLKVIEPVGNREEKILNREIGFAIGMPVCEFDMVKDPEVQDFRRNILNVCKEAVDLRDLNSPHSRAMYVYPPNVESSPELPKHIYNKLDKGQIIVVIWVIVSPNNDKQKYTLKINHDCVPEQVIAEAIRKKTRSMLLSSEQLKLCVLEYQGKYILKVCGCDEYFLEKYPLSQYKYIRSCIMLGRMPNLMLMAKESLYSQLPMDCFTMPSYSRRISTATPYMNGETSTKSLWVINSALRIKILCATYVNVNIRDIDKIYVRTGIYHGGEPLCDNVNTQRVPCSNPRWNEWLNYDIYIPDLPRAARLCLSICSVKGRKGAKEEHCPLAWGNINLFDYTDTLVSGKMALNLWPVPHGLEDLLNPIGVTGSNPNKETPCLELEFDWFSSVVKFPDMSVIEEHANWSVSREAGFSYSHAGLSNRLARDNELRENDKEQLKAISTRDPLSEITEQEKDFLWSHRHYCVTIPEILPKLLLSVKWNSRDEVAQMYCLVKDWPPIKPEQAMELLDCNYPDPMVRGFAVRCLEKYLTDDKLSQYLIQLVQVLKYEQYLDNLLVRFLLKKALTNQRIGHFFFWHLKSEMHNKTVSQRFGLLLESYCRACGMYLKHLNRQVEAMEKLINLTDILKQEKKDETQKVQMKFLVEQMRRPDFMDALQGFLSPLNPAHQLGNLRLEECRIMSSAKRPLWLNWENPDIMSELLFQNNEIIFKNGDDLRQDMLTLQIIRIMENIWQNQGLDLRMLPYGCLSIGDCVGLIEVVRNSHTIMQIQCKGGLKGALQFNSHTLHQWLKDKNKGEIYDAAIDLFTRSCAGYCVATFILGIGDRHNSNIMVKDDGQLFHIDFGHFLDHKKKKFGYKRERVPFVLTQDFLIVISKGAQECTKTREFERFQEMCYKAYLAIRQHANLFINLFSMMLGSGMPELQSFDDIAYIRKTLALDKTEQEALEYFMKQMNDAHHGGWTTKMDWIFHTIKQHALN

NCC[C@H](O)C(=O)N[C@@H]1C[C@H](N)[C@@H](O[C@H]2O[C@H](CN)[C@@H](O)[C@H](O)[C@H]2O)[C@H](O)[C@H]1O[C@H]1O[C@H](CO)[C@@H](O)[C@H](N)[C@H]1O  MIC (Escherichia coli; AR0346 colistin resistant): > 64 µg/mL
CCCCCOc1ccc(-c2ccc(-c3ccc(C(=O)N[C@H]4C[C@@H](O)[C@@H](O)NC(=O)[C@@H]5[C@@H](O)[C@@H](C)CN5C(=O)[C@H]([C@@H](C)O)NC(=O)[C@H]([C@H](O)[C@@H](O)c5ccc(O)cc5)NC(=O)[C@@H]5C[C@@H](O)CN5C(=O)[C@H]([C@@H](C)O)NC4=O)cc3)cc2)cc1  mean clearance (typical invasive candidiasis patient; dose not given, male 70 kg): 1.3 L/h
Cc1n[nH]cc1NC(=O)Cc1cccc(Cl)c1  inhibition (main protease (Mpro); 20 µM): 3.64%
CCCC(C)(C)c1ccc2c(c1)OC(C)(C)[C@@H]1CC=C(C)C[C@@H]21  EC50 (cannabinoid receptor CB1; agonist): > 1000 nM
Nc1ncc(-c2nc(N3CCOCC3)nc(N3CCOCC3)n2)c(C(F)F)n1  remaining binding (PIK3CA (Homo sapiens, UniProt P42336, E545A); KinomeScan competition binding; 10 µM): 0%
CN(C)c1ccc(N(Cc2ccsc2)C(=O)Cn2nnc3ccccc32)cc1  inhibition (main protease (Mpro); 50 µM): 90.3%
O=C(O)c1cn(C2CC2)c2cc(N3CCNCC3)c(F)cc2c1=O  MIC (Escherichia coli; bacterial growth; colistin-resistant): > 8 µg/mL
O=C(Nc1ccc(N(Cc2ccsc2)C(=O)Cn2nnc3ccccc32)cc1)C1CC1  inhibition (main protease (Mpro); 20 µM): 69%
O=c1ccc2ncc(=O)n3c2n1C[C@H]3CN1CCC(NCc2cc3c(cn2)OCCC3)CC1  MIC90 (Escherichia coli; quinolone-resistant): 4 µg/mL (≈ 8.92 µM)
CNC(=NC#N)NCCc1c[nH]cn1  ED50 (antinociception, hot plate test; rat; intracerebroventricular, 5 min): 137 nmol
COc1ccccc1OCCNC(=O)c1cc(=O)[nH]c2cccc(C)c12  inhibition (main protease (Mpro); 20 µM): 91.8%
Nc1ccn([C@@H]2O[C@H](CO)[C@@H](O)C2(F)F)c(=O)n1  6-month overall survival rate (metastatic pancreatic cancer patients; dose not given): 46%
Cc1ccncc1NC(=O)C1(c2cccc(Cl)c2)CC1  inhibition (main protease (Mpro); 20 µM): 38.4%
CC(C)(O/N=C(\C(=O)N[C@@H]1C(=O)N2C(C(=O)[O-])=C(C[N+]3(CCNC(=O)c4ccc(O)c(O)c4Cl)CCCC3)CS[C@H]12)c1csc(N)n1)C(=O)O  kcat (KPC-2; hydrolysis by enzyme, substrate): > 0.03 s⁻¹
CCN(CC)N=O  mutation frequency (fingerprint mutation, item: T>C substitution; rat, liver; concentration not given): increased
O=C[C@H](O)COP(=O)(O)O  Km (Triosephosphate isomerase, glycosomal (Trypanosoma brucei brucei, UniProt P04789); substrate; pH 7.5): 330 µM
CNC(=O)[C@H]1O[C@@H](n2cnc3c(NCc4cccc(I)c4)ncnc32)[C@H](O)[C@@H]1O  Hill coefficient (ADORA3 (Homo sapiens, UniProt P0DMS8)): 0.8
N#C/C(=C/c1ccc(O)c(O)c1)C(=O)NCc1ccccc1  HCV RNA production (hepatitis C virus; HCV-infected cells; concentration not given): decreased
Cc1ccncc1NC(=O)Cc1cc(Cl)cc(O[C@@H]2CC(=O)N2)c1  inhibition (main protease (Mpro); 20 µM): 94.5%
CNC(C)C1CCC(N)C(OC2C(N)CC(N)C(OC3OCC(C)(O)C(NC)C3O)C2O)O1 (stereo not shown)  MIC (Escherichia coli; AR0346 colistin resistant): > 16 µg/mL
C[C@]12CC[C@@H]3c4ccc(O)cc4C[C@@H](CCCCCCCCC[S+]([O-])CCCC(F)(F)C(F)(F)F)[C@H]3[C@@H]1CC[C@@H]2O (stereo partly shown)  AR binding call (Androgen receptor (Ar, Rattus norvegicus, UniProt P15207); validation reference set; concentration not given): inactive
C=C[C@@H]1C[C@]1(NC(=O)[C@@H]1C[C@@H]2CN1C(=O)[C@H](C(C)(C)C)NC(=O)O[C@@H]1C[C@H]1CCCCCc1nc3ccc(OC)cc3nc1O2)C(=O)NS(=O)(=O)C1CC1  IC50 (human CYP3A4; inhibitor; added: midazolam substrate): 73000 nM
COc1ccc(C2C(C#N)=C(N)OC3=C2C(=O)CC(c2cccc4ccccc24)C3)cc1 (stereo not shown)  IC50 (EAAT1 (SLC1A3); inhibitor): 660 nM
NCCc1ccc(Oc2ccc(O)cc2)c(I)c1  inhibition ([3H]serotonin uptake, inhibitor; rat brain synaptosomes; 10 µM): 42.2%
COC(=O)[C@@H]1C[C@H](OC(C)=O)C(=O)[C@H]2[C@@]1(C)CC[C@H]1C(=O)O[C@H](c3ccoc3)C[C@]21C  Ki (kappa opioid receptor V108A): 269 ± 25 nM
CO/N=C(\C(=O)N[C@@H]1C(=O)N2C(C(=O)O)=C(CSc3nc(=O)c(=O)[nH]n3C)CS[C@H]12)c1csc(N)n1  MIC (Escherichia coli; AR0346 colistin resistant): > 32 µg/mL
CN1COCN(Cc2cnc(Cl)s2)/C1=N\[N+](=O)[O-]  measured soil concentration (test soil; 0.37 mg/kg nominal, 0 days): 0.31 mg/kg dry soil
O=c1[nH]cc(F)c(=O)[nH]1  1-year survival rate (metastatic pancreatic cancer patients; dose not given): 2%
